Measured values collected from several papers.
Every numbered part comes from another study and shows a few of its results, in no order. Positions count from the first letter of the parent shown.

Set 1 — technique: protein binding microarray; molecule type: double-stranded DNA, one strand shown; sample: in vitro; concentration: not given; relative to: not given; reading: higher = stronger binding; endpoint: E-score
Target: Histone acetyltransferase KAT6A, winged helix 2, GST fusion (KAT6A, Homo sapiens, UniProt Q92794, residues 85-181)
Setting: 8-mer, flanks averaged, mean of 2 arrays, mostly near background
Construct (chain): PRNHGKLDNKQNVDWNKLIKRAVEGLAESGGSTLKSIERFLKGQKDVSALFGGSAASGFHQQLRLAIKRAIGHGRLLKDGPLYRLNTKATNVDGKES
AGGAGGGA: -0.0319
CATCAATA: -0.0693
AACATAGA: -0.104
AACTCGAT: -0.0168
CTCTAGTC: -0.153
AACCTTGC: 0.0226
ATGGCGGC: 0.0858
CCATCCGA: -0.0095
CTTTTAAC: -0.125
AGCGACCC: 0.122
CTTAGTTA: 0.0671
AGTATCTG: -0.108
ACTAATTA: 0.136
AATAAGGT: -0.12
CAACCGGG: 0.157
ACTATTCA: -0.0411
TTTTAAAA: 0.223
ACCAGCCC: 0.153
AGAAGTAA: -0.0645
GTACGGCA: 0.0733
CCTACTCG: 0.0152
AGGAATAT: 0.0927
CAACCGCA: 0.147
ACACCGGA: 0.124
GATGTTAC: -0.0334

Set 2 — target: CCNB2, cyclin fold, Cln2 fusion (human); technique: yeast growth competition, sequencing; sample: yeast; setting: strong parent motif; relative to: not given; reading: higher = stronger binding; endpoint: normalised enrichment score
Starting sequence: PKMYT1 docking peptide (human); SFEPRNLLSLFED
R5K F11L: -0.251
P4V: 0.273
F2M: 1.42
F2W: 0.441
R5H: -0.397
L7Y: -0.503
E12W: -0.315
E3P: 1.64
F2C: 1.78
L10E: 2.59
P4L: -0.437
S9C: 0.823
S1C: 1.59
L10N: 0.62
L7D: -0.613
L8C: 0.782
L8T: 0.517
N6Y: -0.527
F11L: 0.126
E12R: 0.0671
N6T: -0.565
L8A: 0.897
F2P: 1.05
R5A: 0.878
R5K: 1.74

Set 3 — technique: protein-binding microarray; molecule type: double-stranded DNA, one strand shown; sample: in vitro; concentration: 940 nM top; setting: 60-bp whole probe; added: salmon DNA 0.4 mg/ml; relative to: random background probes; reading: higher = stronger binding; endpoint: fitted relative affinity; constant ends, left off below: GCCTAGCAC … GTCTTGATTCGCTTGACGCTGCTG
Target: Interferon regulatory factor 5, full length, phosphomimetic (IRF5, Homo sapiens, UniProt Q13568-2, residues 1-514, S451D/S453D/S456D/S462D)
GACGATTTCGGTTATCGAGACGTGCTA: 2.05 z-score
TTAGATTTCGGGTTTCGATCAGTGCTA: 5.13 z-score
TTAGGTATCGACTTTCGGGTAGTGCTA: 5.21 z-score
TCACCCATGAGTCTCAAACTGTGCTAG: 0.268 z-score
GACGATTTCAGACGGGAGACGTGCTAG: -0.258 z-score
GAGTGTTTCTTCTGCTGACAGTGCTAG: 0.994 z-score
GACGGTTTAGGGACTGGGGACGTGCTA: -0.0415 z-score
CCATTTTTCTAGTCCAGACTGTGCTAG: 1.07 z-score
TTAGGTAACGGTTTCGGTTAGTGCTAG: 7.13 z-score
GACGTTATCCTTATCCTGACGTGCTAG: 0.551 z-score
TCCATTTTGTGTTTTCATTTGTGCTAG: 1.44 z-score
TGTTACATTTATATCTTTGCGTGCTAG: 0.8 z-score
GACGGTATCCTTTTCCTTACGTGCTAG: 0.432 z-score
TCAAGAGTAGCTTTCTGACTGTGCTAG: -0.284 z-score
TCATGTTTGGGCATTTTTACTGTGCTA: 0.0479 z-score
TTAGGTTCCCTTTTGCTTTAGTGCTAG: 0.424 z-score
GACGGACTGGGGTTTCGTGACGTGCTA: 0.765 z-score

Set 4 — technique: DHFR PCA, deep sequencing; sample: yeast; added: (+)-ABA 17 µM; relative to: wild-type fitted maximum; reading: higher = stronger binding; endpoint: relative binding score
Target: ABI1, truncated, D143A, DHFR fusion (Arabidopsis thaliana)
Setting: methotrexate growth selection, single substitutions
Starting sequence: PYL1, truncated, DHFR fusion (Arabidopsis thaliana); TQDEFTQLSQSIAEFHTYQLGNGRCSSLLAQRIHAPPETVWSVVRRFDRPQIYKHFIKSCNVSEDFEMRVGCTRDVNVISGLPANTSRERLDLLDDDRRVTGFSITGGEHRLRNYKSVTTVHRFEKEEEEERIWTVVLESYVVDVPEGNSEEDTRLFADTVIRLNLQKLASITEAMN; partner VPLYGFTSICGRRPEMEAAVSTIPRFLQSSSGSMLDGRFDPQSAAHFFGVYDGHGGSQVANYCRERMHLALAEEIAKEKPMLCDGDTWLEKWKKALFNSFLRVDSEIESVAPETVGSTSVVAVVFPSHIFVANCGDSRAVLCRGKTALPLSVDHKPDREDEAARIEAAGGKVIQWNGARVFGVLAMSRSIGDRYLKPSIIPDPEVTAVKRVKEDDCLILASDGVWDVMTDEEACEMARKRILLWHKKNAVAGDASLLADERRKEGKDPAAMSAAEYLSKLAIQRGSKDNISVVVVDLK
F66D: 66%
T106A: 27.4%
T17Y: 36.2%
T119M: 74.4%
R155K: 86.9%
T173Q: -8.3%
E128D: 106%
T86C: 78.9%
R111H: -0.0745%
I12A: 20.2%
R49V: 58.2%
V76A: 9.68%

Some of these lines once more (set 1):
ACTATTCA: -0.0411
GTACGGCA: 0.0733
ACCAGCCC: 0.153
ACTAATTA: 0.136
CAACCGGG: 0.157
